Results collected from several papers.
Each line is one published result; not all experiments were run side by side.
Organism: Staphylococcus aureus

| SMILES | effect on | technique | strain | sample | time | temperature | MIC |
| --- | --- | --- | --- | --- | --- | --- | --- |
| CC[C@H](C)[C@H](NC(=O)CNC(=O)[C@H](CCCNC(=N)N)NC(=O)[C@H](Cc1ccccc1)NC(=O)[C@@H](NC(=O)[C@H](Cc1c[nH]cn1)NC(=O)[C@H](Cc1c[nH]cn1)NC(=O)[C@H](Cc1ccccc1)NC(=O)[C@@H](N)Cc1ccccc1)[C@@H](C)CC)C(=O)N[C@H](C(=O)N[C@@H](Cc1c[nH]cn1)C(=O)N[C@H](C(=O)NCC(=O)N[C@@H](CCCCN)C(=O)N[C@H](C(=O)N[C@H](C(=O)N[C@@H](Cc1c[nH]cn1)C(=O)N[C@@H](CCCNC(=N)N)C(=O)N[C@@H](CC(C)C)C(=O)N[C@H](C(=O)N[C@H](C(=O)NCC(N)=O)[C@@H](C)O)C(C)C)[C@@H](C)CC)[C@@H](C)O)C(C)C)C(C)C | – | broth microdilution | ATCC 25923 | – | 18 h | 37 °C | 3.1 µg/mL |
| N=C(N)NCCC[C@H](NC(=O)[C@H](Cc1c[nH]cn1)NC(=O)[C@@H]1CCCN1C(=O)[C@H](CS)NC(=O)[C@@H](N)Cc1ccc(O)cc1)C(=O)N[C@@H](CS)C(=O)O | – | broth microdilution | MTCC 96 | – | – | 37 °C | 110 µg/mL |
| O=[N+]([O-])c1ccc(Sc2nc3ccccc3s2)c([N+](=O)[O-])c1 | microbial growth | – | ATCC25923 | – | – | – | > 500 µg/mL |
| CC[C@H](C)[C@H](NC(=O)[C@H](C)NC(=O)[C@@H](NC(=O)[C@H](C)NC(=O)CNC(=O)[C@H](CCSC)NC(=O)[C@H](CCC(N)=O)NC(=O)[C@H](CC(C)C)NC(=O)[C@H](CO)NC(=O)[C@@H](N)Cc1ccc(O)cc1)[C@@H](C)O)C(=O)N[C@@H](CCCCN)C(=O)N[C@@H](CCC(N)=O)C(=O)N[C@H](C(=O)N[C@@H](CCCCN)C(=O)N[C@@H](CCCCN)C(=O)N[C@@H](CC(C)C)C(=O)N[C@@H](Cc1ccccc1)C(=O)N[C@@H](CCCCN)C(=O)N[C@@H](CCCCN)C(=O)N[C@@H](CCCCN)C(=O)NCC(=O)NCC(N)=O)C(C)C | – | broth microdilution | ATCC 25923 | – | 24 h | 37 °C | 78 µM |
| CN[C@H](CC(C)C)C(=O)N[C@H]1C(=O)N[C@@H](CC(N)=O)C(=O)N[C@H]2C(=O)N[C@H]3C(=O)N[C@H](C(=O)N[C@H](C(=O)O)c4cc(O)cc(O)c4-c4cc3ccc4O)[C@H](O)c3ccc(c(Cl)c3)Oc3cc2cc(c3O[C@@H]2O[C@H](CO)[C@@H](O)[C@H](O)[C@H]2O[C@H]2C[C@](C)(N)[C@H](O)[C@H](C)O2)Oc2ccc(cc2Cl)[C@H]1O | microbial growth | broth dilution | ATCCBAA1717 MRSA | – | 20 h | – | 0.98 µg/mL |
| CC[C@H](C)[C@H](NC(=O)CN)C(=O)NCC(=O)N[C@@H](C)C(=O)N[C@H](C(=O)N[C@@H](CC(C)C)C(=O)N[C@@H](CCCCN)C(=O)N[C@H](C(=O)N[C@@H](CC(C)C)C(=O)N[C@H](C(=O)N[C@H](C(=O)NCC(=O)N[C@@H](CC(C)C)C(=O)N1CCC[C@H]1C(=O)N[C@@H](C)C(=O)N[C@@H](CC(C)C)C(=O)N[C@H](C(=O)N[C@@H](CO)C(=O)N[C@@H](Cc1c[nH]c2ccccc12)C(=O)N[C@H](C(=O)N[C@@H](CCCCN)C(=O)N[C@@H](CCCNC(=N)N)C(=O)N[C@@H](CCCCN)C(=O)N[C@@H](CCCNC(=N)N)C(=O)N[C@@H](CCC(N)=O)C(=O)N[C@@H](CCC(N)=O)C(N)=O)[C@@H](C)CC)[C@@H](C)CC)[C@@H](C)O)[C@@H](C)O)C(C)C)C(C)C | – | broth microdilution | KCTC 1621 | – | 16 h | 37 °C | 0.8 µM |
| CC[C@H](C)[C@H](NC(=O)CNC(=O)[C@H](CCCNC(=N)N)NC(=O)[C@H](Cc1ccccc1)NC(=O)[C@@H](NC(=O)[C@H](Cc1c[nH]cn1)NC(=O)[C@H](Cc1c[nH]cn1)NC(=O)[C@H](Cc1ccccc1)NC(=O)[C@@H](N)Cc1ccccc1)[C@@H](C)CC)C(=O)N[C@H](C(=O)N[C@@H](Cc1c[nH]cn1)C(=O)N[C@H](C(=O)NCC(=O)N[C@@H](CCCCN)C(=O)N[C@H](C(=O)N[C@H](C(=O)N[C@@H](Cc1c[nH]cn1)C(=O)N[C@@H](CCCNC(=N)N)C(=O)N[C@@H](CC(C)C)C(=O)N[C@H](C(=O)N[C@H](C(=O)NCC(=O)O)[C@@H](C)O)C(C)C)[C@@H](C)CC)[C@@H](C)O)C(C)C)C(C)C | – | broth microdilution | USA300 LAC | – | – | 37 °C | 3.1 µM |
| CC(C)C[C@H](NC(=O)CN)C(=O)N[C@@H](Cc1ccccc1)C(=O)N[C@@H](CC(=O)O)C(=O)N[C@@H](CC(C)C)C(=O)N[C@@H](CC(C)C)C(=O)N[C@@H](CCCCN)C(=O)N[C@@H](CCCCN)C(=O)N[C@@H](CC(C)C)C(=O)N[C@@H](CC(C)C)C(=O)N[C@@H](CCCCN)C(=O)N[C@@H](CC(C)C)C(=O)N[C@@H](CC(C)C)C(=O)N[C@@H](CCCCN)C(N)=O | – | – | SH1000 GFP-expressing | nutrient broth | 20 h | 37 °C | 100 µM |
| CN[C@H](CC(C)C)C(=O)N[C@H]1C(=O)N[C@@H](CC(N)=O)C(=O)N[C@H]2C(=O)N[C@H]3C(=O)N[C@H](C(=O)N[C@H](C(=O)O)c4cc(O)cc(O)c4-c4cc3ccc4O)[C@H](O)c3ccc(c(Cl)c3)Oc3cc2cc(c3O[C@@H]2O[C@H](CO)[C@@H](O)[C@H](O)[C@H]2O[C@H]2C[C@](C)(N)[C@H](O)[C@H](C)O2)Oc2ccc(cc2Cl)[C@H]1O | – | – | MSSA ATCC 29213 | – | – | – | 1 µg/mL |
| CC[C@H](C)[C@H](NC(=O)[C@H](CC(=O)O)NC(=O)[C@H](Cc1ccccc1)NC(=O)[C@H](CC(C)C)NC(=O)CN)C(=O)N[C@H](C(=O)N[C@@H](CCCCN)C(=O)N[C@@H](CCCCN)C(=O)N[C@H](C(=O)N[C@H](C(=O)NCC(=O)N[C@@H](CC(C)C)C(=O)N[C@@H](CC(C)C)C(=O)N[C@@H](CCCCN)C(N)=O)C(C)C)C(C)C)C(C)C | – | – | ATCC 43300 | CAMHB | 18 h | 37 °C | > 21 µM |
| CC[C@H](C)[C@H](N)C(=O)N[C@@H](CCCCN)C(=O)N[C@@H](Cc1c[nH]c2ccccc12)C(=O)N[C@@H](CCCCN)C(=O)N[C@@H](CCCCN)C(=O)N[C@@H](CC(C)C)C(=O)N[C@@H](CC(C)C)C(=O)N[C@@H](CCCNC(=N)N)C(=O)N[C@@H](C)C(=O)N[C@@H](C)C(=O)N[C@@H](CCCCN)C(=O)N[C@@H](CCCNC(=N)N)C(=O)N[C@H](C(=O)N[C@@H](CC(C)C)C(N)=O)[C@@H](C)CC | – | broth microdilution | USA300 LAC | – | – | 37 °C | 6.2 µM |
| CC[C@H](C)[C@H](NC(=O)[C@H](CC(=O)O)NC(=O)[C@H](Cc1ccccc1)NC(=O)[C@H](CC(C)C)NC(=O)CN)C(=O)N[C@H](C(=O)N[C@@H](CCCCN)C(=O)N[C@@H](CCCCN)C(=O)N[C@@H](CC(C)C)C(=O)N[C@@H](CC(C)C)C(=O)N[C@@H](CCCCN)C(=O)N[C@@H](CC(C)C)C(=O)N[C@@H](CC(C)C)C(=O)N[C@@H](CCCCN)C(N)=O)C(C)C | – | – | SH1000 GFP-expressing | nutrient broth | 20 h | 37 °C | 100 µM |
| CSCC[C@H](NC(=O)[C@H](CC(N)=O)NC(=O)[C@@H]1CCCN1C(=O)[C@@H]1CCCN1C(=O)[C@H](CCCNC(=N)N)NC(=O)[C@@H]1CCCN1C(=O)[C@H](CCCNC(=N)N)NC(=O)[C@@H]1CCCN1C(=O)[C@H](CCCNC(=N)N)NC(=O)[C@H](Cc1ccc(O)cc1)NC(=O)[C@H](CC(=O)O)NC(=O)[C@@H]1CCCN1C(=O)[C@H](CCCCN)NC(=O)[C@H](CC(=O)O)NC(=O)[C@@H](N)C(C)C)C(=O)O | – | broth microdilution | USA300 LAC | – | – | 37 °C | > 100 µM |

A few entries again:
| SMILES | effect on | technique | strain | sample | time | temperature | MIC |
| --- | --- | --- | --- | --- | --- | --- | --- |
| CN[C@H](CC(C)C)C(=O)N[C@H]1C(=O)N[C@@H](CC(N)=O)C(=O)N[C@H]2C(=O)N[C@H]3C(=O)N[C@H](C(=O)N[C@H](C(=O)O)c4cc(O)cc(O)c4-c4cc3ccc4O)[C@H](O)c3ccc(c(Cl)c3)Oc3cc2cc(c3O[C@@H]2O[C@H](CO)[C@@H](O)[C@H](O)[C@H]2O[C@H]2C[C@](C)(N)[C@H](O)[C@H](C)O2)Oc2ccc(cc2Cl)[C@H]1O | – | – | MSSA ATCC 29213 | – | – | – | 1 µg/mL |
| CC[C@H](C)[C@H](NC(=O)[C@H](CC(=O)O)NC(=O)[C@H](Cc1ccccc1)NC(=O)[C@H](CC(C)C)NC(=O)CN)C(=O)N[C@H](C(=O)N[C@@H](CCCCN)C(=O)N[C@@H](CCCCN)C(=O)N[C@H](C(=O)N[C@H](C(=O)NCC(=O)N[C@@H](CC(C)C)C(=O)N[C@@H](CC(C)C)C(=O)N[C@@H](CCCCN)C(N)=O)C(C)C)C(C)C)C(C)C | – | – | ATCC 43300 | CAMHB | 18 h | 37 °C | > 21 µM |
